Literature values that unrelated publications cite.
Each numbered part shows a few of the values that one paper quotes.
Sequence of UniProt Q8VQF6 (whole entry, looked up): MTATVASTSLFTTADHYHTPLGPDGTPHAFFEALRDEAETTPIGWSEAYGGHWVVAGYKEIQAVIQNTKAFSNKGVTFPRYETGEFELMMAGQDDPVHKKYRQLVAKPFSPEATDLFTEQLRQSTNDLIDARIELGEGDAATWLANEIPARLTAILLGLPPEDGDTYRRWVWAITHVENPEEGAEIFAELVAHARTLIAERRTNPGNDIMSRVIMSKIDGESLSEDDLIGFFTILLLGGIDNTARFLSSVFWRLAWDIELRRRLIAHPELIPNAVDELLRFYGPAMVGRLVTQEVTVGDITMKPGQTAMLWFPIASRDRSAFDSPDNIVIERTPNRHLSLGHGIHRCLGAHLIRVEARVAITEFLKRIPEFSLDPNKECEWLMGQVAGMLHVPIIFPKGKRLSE

Set 1
SMILES: OCCN1CCN(CCC=C2c3ccccc3Sc3ccc(C(F)(F)F)cc32)CC1
Cell line: MCF7
Method: microarray
Concentration: concentration not given
Reference: DMSO
For item: TSFM mRNA: “log2 fold change” read 0.71.
For item: WDR45 mRNA: “log2 fold change” read 1.15.
item: VEGFA mRNA — “log2 fold change”: 1.28.

Further values, each from its own experiment
Ahr: Aryl hydrocarbon receptor (Ahr, Rattus norvegicus, UniProt P41738)
Sequence of UniProt P41738 (whole entry, looked up): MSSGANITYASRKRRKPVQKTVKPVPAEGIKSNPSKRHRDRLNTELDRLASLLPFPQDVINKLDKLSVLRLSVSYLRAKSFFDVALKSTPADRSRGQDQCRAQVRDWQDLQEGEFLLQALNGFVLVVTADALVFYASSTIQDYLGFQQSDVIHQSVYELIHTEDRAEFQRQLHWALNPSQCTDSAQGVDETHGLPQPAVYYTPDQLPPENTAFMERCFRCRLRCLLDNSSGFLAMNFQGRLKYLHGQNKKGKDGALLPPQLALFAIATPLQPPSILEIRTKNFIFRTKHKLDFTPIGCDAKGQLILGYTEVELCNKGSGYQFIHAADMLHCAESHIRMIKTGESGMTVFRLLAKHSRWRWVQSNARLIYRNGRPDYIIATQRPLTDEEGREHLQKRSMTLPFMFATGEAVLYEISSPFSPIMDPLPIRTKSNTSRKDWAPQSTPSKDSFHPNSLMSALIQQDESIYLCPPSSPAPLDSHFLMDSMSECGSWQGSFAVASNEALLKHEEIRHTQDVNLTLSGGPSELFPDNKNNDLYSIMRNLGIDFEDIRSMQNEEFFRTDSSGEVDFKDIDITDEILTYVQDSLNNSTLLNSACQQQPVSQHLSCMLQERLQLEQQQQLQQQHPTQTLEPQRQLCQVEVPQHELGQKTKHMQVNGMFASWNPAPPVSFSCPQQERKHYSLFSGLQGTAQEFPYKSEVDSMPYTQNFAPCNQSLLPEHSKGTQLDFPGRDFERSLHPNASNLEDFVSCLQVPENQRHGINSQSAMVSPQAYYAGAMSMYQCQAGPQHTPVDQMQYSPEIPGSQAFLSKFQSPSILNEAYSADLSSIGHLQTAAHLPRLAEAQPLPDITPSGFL
For `CC(=O)SCC[N+](C)(C)C`, “substrate activation factor b” read 3.6 (butyrylcholinesterase; concentration not given).
With `c1ccc2c(c1)Cc1c-2ccc2ccccc12` the relative potency was 1.2 (Ahr; 50% effect level; reference: benzo[a]pyrene).
For `CC12CCC(CC1)C(C)(C)O2`, the Kd was 700 nM (1,8-cineole 2-endo-monooxygenase (cinA, Citrobacter braakii, UniProt Q8VQF6)).
The relative potency of `Cc1ccc2cc3c(ccc4ccccc43)c3c2c1CC3` is reported as 3.2 (Ahr; 50% effect level; reference: benzo[a]pyrene).
`CCOC(=O)[C@@H]1CSCC(=O)N[C@@H](CC)C(=O)N(C)[C@@H](C)C(=O)N[C@@H](CC(C)C)C(=O)N(C)[C@H](C)C(=O)N(CC(C)C)CC(=O)N[C@H](CC(C)C)C(=O)N(C)[C@H](C)C(=O)N[C@@H](CC(C)C)C(=O)N1C` — result for “log permeability (Pe)”: -6.03 (MDCK).

Repeated from above (further values, each from its own experiment):
For `CC(=O)SCC[N+](C)(C)C`, “substrate activation factor b” read 3.6 (butyrylcholinesterase; concentration not given).
